Measurements pooled from the literature.
Every numbered part comes from another study and shows a few of its results, in no order. Substitutions count along the parent as printed.

Study 1
Target: CCNF, cyclin fold, Cln2 fusion (human)
Method: yeast growth competition, sequencing
Matrix: yeast
Notes: strong parent motif
Baseline: not given
Direction: higher = stronger binding
Quantity: normalised enrichment score
Starting sequence: viral docking peptide; TSVRRALFTGGSD
TSVRRELFTGGSD [A6E]: 6.86
TSVRRAQFTGGSD [L7Q]: -0.0763
TSVRMALFTGGSD [R5M]: 0.899
TSVRRALFTTGSD [G10T]: 7.94
TSVRRALFTGGQD [S12Q]: 8.47
TSVRHALFTGGSD [R5H]: 1.35
TSVRRAEFTGGSD [L7E]: 0.328
TSPRRALFTGGSD [V3P]: 5.12
TSERRALFTGGSD [V3E]: 1.59
TMVRRALFTGGSD [S2M]: 7.95
TSVMRALFTGGSD [R4M]: 5.46
TSVRRALFTGHSD [G11H]: 8.46
TIVRRALFTGGSD [S2I]: 7.31
TSVRRALFTGGFD [S12F]: 8.48
TSVRRALFCGGSD [T9C]: 8.23
TSKRRALFTGGSD [V3K]: 1.2
TSVRRALNTGGSD [F8N]: 0.849
TSVRDALFTGGSD [R5D]: -0.217
TSVRRLLFTGGSD [A6L]: 6.88
TSVRRALFVGGSD [T9V]: 8.65
TSVRRALFTGDSD [G11D]: 7.83
TSVRRALFTCGSD [G10C]: 8.16
TSVIRALFTGGSD [R4I]: 6.79
TSVRRALKTGGSD [F8K]: 0.511
TEVRRALFTGGSD [S2E]: 7.22

Study 2
Target: UDP-N-acetylglucosamine--peptide N-acetylglucosaminyltransferase 110 kDa subunit (OGT, Homo sapiens, UniProt O15294)
Effect on: binding
Method: phage display NGS
Molecule type: peptide
Baseline: input library
Quantity: minimum log2 enrichment ratio
Construct (O15294 1-1046): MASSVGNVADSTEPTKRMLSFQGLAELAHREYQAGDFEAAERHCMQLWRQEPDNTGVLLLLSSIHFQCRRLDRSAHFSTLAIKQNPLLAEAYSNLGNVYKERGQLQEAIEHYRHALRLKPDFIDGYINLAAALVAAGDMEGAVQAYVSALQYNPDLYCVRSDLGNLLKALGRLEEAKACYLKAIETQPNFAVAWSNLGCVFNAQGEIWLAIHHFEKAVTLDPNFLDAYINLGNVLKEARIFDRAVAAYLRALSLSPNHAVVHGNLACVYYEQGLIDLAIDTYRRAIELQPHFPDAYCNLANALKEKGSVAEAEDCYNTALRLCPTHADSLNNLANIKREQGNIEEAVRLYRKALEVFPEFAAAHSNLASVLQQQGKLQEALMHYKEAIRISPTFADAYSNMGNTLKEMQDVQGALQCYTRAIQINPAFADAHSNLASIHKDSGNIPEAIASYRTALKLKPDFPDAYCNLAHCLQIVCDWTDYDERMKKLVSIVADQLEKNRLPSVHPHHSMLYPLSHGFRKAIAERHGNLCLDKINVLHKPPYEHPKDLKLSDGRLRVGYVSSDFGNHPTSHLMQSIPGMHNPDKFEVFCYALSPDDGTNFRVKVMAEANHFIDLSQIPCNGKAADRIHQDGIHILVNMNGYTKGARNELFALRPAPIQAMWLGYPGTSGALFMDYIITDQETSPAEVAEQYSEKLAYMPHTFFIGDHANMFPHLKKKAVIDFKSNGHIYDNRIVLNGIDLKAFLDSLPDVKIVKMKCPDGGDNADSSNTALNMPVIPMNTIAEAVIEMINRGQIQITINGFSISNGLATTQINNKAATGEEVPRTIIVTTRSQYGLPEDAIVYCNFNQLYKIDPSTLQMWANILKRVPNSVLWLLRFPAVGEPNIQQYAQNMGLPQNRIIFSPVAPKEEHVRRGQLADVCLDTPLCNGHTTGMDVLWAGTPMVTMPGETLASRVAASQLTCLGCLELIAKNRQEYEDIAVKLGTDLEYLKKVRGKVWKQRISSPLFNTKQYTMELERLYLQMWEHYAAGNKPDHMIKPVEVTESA
QNLEFFPKYQLVTR: 2.06
APTYLPAYPIRYTME: 4.35
QEGTMPIYQIIMKYD: 1.75
SWAPWHIASQRHQDF: 1.76
NHAHYATDSHTHNHQ: 2.3
YFPPVYEMQVKHFQ: 2.33
HLQYPDHPIHEHTHI: 3.66
QRVQHSHHYMHQIAE: 3.34
QPYFLPKYVITVDNS: 3.08
GPRNLIPKYQIQYTY: 5.44
YRTAHSHDHASHHNH: 3.53
HYHNDFTFHFNHTFH: 1.55
HWFPTHTHYFMRHTS: 3.26
HLYTFQHHRSEWLGR: 1.37
HVWSSKYSMHHQSSI: 2.1
AGGALFSPHYQIVI: 3.55
AHAIHPDLHQYHSHQ: 1.6
APDIFFHPKYYIKI: 3.8
DDTGPFQPMYQIQII: 5.77
YMVDTHHKHHQHPVF: 1.92
SVFVHMQHRHGPHY: 3.88
HTYHWANVHDDPQAR: 1.38
TLSPQHNHEHNQPHH: 2.81
ITSMDYTPAYQLRYS: 1.29
HVSHTHPYQSQDHQH: 2.05

Study 3
Target: inorganic phosphate, free oxyanion
Method: microfluidic competitive inhibition
Matrix: in vitro, cell-free expressed
Concentration: not given
Notes: derived from inhibition constants, unchanged parent 615000 nM
Direction: lower = stronger binding
Quantity: phosphate dissociation constant
Starting sequence: PafA, mature enzyme, eGFP fusion (Elizabethkingia meningoseptica, UniProt Q9KJX5); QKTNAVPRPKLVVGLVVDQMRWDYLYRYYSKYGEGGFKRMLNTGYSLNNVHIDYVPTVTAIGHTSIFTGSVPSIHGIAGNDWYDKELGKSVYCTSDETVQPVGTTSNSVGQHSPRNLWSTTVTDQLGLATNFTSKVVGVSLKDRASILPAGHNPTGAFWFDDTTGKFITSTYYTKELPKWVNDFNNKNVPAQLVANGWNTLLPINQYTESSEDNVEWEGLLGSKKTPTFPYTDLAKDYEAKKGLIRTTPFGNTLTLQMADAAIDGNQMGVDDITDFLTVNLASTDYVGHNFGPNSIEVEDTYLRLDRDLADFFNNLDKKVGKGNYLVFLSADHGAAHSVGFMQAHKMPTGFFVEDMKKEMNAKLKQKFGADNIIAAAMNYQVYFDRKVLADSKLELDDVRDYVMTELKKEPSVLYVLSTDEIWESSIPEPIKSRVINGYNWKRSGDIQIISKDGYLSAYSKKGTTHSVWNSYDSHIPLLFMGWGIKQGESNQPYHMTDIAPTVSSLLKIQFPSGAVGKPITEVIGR
S412V: 698 µM
E209V: 583 µM
V194G: 417 µM
K508G: 429 µM
A390G: 600 µM
Y32V: 665 µM
V91A: 707 µM
T255G: 616 µM
R400V: 736 µM
P227G: 555 µM
T174V: 637 µM

Study 4
Target: POU, POU domain (Salpingoeca helianthica)
Method: Spec-seq
Molecule type: double-stranded DNA, one strand shown
Matrix: in vitro
Concentration: not given
Notes: whole probe, mean of replicates
Baseline: not given
Direction: lower = stronger binding
Quantity: relative binding energy
Constant ends, left off below: GAGTCGTCTCGTCAGCAC … CCGTAGAGCACTCAGGTC
Construct (chain): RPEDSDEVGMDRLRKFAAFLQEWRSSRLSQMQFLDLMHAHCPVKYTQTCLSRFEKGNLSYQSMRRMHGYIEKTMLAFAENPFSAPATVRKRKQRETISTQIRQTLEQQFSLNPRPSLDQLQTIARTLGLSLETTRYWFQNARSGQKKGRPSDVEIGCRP
ATGCTGGT: 1.37 ln ratio
CTTTTAAT: -0.0602 ln ratio
ATGCGTTG: 1.34 ln ratio
ATTGTCAT: 1.12 ln ratio
CCGATAAT: 0.378 ln ratio
ATGCCACC: 0.973 ln ratio
ATTAGTAT: 0.397 ln ratio
ATCTCTAT: 1.17 ln ratio

For quick reference, copied from above (study 2):
APTYLPAYPIRYTME: 4.35
QEGTMPIYQIIMKYD: 1.75
SWAPWHIASQRHQDF: 1.76
NHAHYATDSHTHNHQ: 2.3
YFPPVYEMQVKHFQ: 2.33
HLQYPDHPIHEHTHI: 3.66
QRVQHSHHYMHQIAE: 3.34
QPYFLPKYVITVDNS: 3.08
GPRNLIPKYQIQYTY: 5.44
YRTAHSHDHASHHNH: 3.53
HYHNDFTFHFNHTFH: 1.55
